Published values collected from several papers.
Lines come from different studies, so protocols differ. “And” joins repeats or separate records; there may be more than shown. ± marks the error that the study gave. Values after ≈ are worked out from the molar mass of the structure shown.

SMILES | organism | test | system | conditions | how to read | quantity | result
Nc1ncnc2c1ncn2[C@@H]1O[C@@H]2COP(=O)(O)O[C@H]3[C@@H](O)[C@H](n4cnc5c(=O)[nH]cnc54)O[C@@H]3COP(=O)(O)O[C@H]2[C@H]1O | West Nile virus | RNA sequencing Reactome analysis, item: G2/M Checkpoints (R-HSA-69481) | HFF-1 | concentration not given, upregulated pathways, together with: West Nile virus infection | baseline: WNV-infected without compound | fold enrichment | 3.68
C#Cc1ccc(C=NNC(=O)c2ccc(COC)cc2)c(O)c1 | Aspergillus fumigatus |  | 293 | unit not given, together with: voriconazole | lower = more synergy | FICI | 2
COc1ccc2c(ccc3oc([N+](=O)[O-])c(OC)c32)c1 | Mycobacterium avium subsp. hominissuis | REMA | ATCC 25291 |  |  | MIC90 | > 32 µg/mL
CN(C)CCCn1cc(C2=C(c3c[nH]c4ccccc34)C(=O)NC2=O)c2ccccc21 | murine hepatitis virus | viral replication, nanoluciferase reporter | DBT | 1 µM | baseline: DMSO vehicle | inhibition | 37%
CC[C@H](C)[C@H](NC(=O)[C@H](C)NC(=O)[C@H](CCCCN)NC(=O)[C@H](CC(C)C)NC(=O)[C@H](C)NC(=O)[C@@H](NC(=O)[C@H](Cc1c[nH]cn1)NC(=O)[C@H](CC(C)C)NC(=O)[C@@H](NC(=O)[C@@H](NC(=O)[C@H](CCCCN)NC(=O)[C@H](C)NC(=O)[C@H](C)NC(=O)[C@H](CO)NC(=O)[C@H](CCCCN)NC(=O)[C@H](Cc1ccccc1)NC(=O)[C@@H](NC(=O)[C@H](CCCCN)NC(=O)[C@H](CC(C)C)NC(=O)[C@H](Cc1ccccc1)NC(=O)[C@H](CO)NC(=O)[C@H](CCCCN)NC(=O)[C@H](Cc1c[nH]c2ccccc12)NC(=O)[C@H](CCCCN)NC(C)=O)[C@@H](C)O)[C@@H](C)O)C(C)C)[C@@H](C)O)C(=O)N[C@@H](CO)C(=O)N[C@@H](CO)C(N)=O | Klebsiella pneumoniae |  | ATCC 1706 |  |  | MIC90 | 2 µg/mL (≈ 0.682 µM)
Cn1cc(C2=C(c3cn(C4CCN(Cc5ccccn5)CC4)c4ccccc34)C(=O)NC2=O)c2ccccc21 | Aspergillus fumigatus |  |  | 20 µM | baseline: untreated | metabolic activity | ≥ 80%
CCn1c(=O)c(-c2ccc(Cl)cc2Cl)cc2cnc(Nc3ccc(N4CCNCC4)c(F)c3)nc21 | murine hepatitis virus | viral replication, nanoluciferase reporter | DBT | 1 µM | baseline: DMSO vehicle | inhibition | 47%
CC(=O)O[C@H]1C[C@H](O[C@H]2[C@@H](O)C[C@H](O[C@H]3[C@@H](O)C[C@H](O[C@H]4CC[C@@]5(C)[C@H](CC[C@@H]6[C@@H]5C[C@@H](O)[C@]5(C)[C@@H](C7=CC(=O)OC7)CC[C@]65O)C4)O[C@@H]3C)O[C@@H]2C)O[C@H](C)[C@H]1O[C@@H]1O[C@H](CO)[C@@H](O)[C@H](O)[C@H]1O | human alphaherpesvirus 1 | live-cell GFP imaging | primary human keratinocytes, K26 GFP |  |  | IC50 | 0.09 µM
CC[C@H](C)C[C@H](C)CCCCCCCCC(=O)N[C@H]1C[C@@H](O)[C@@H](NCCN)NC(=O)[C@@H]2[C@@H](O)CCN2C(=O)[C@H]([C@H](O)CCN)NC(=O)[C@H]([C@H](O)[C@@H](O)c2ccc(O)cc2)NC(=O)[C@@H]2C[C@@H](O)CN2C(=O)[C@H]([C@@H](C)O)NC1=O | Clavispora lusitaniae | broth dilution | ATCC 34449 | 48 h, 37 °C |  | MFC | 1 µg/mL (≈ 0.915 µM)
Nc1ncnc2c([C@@H]3N[C@H](CO)[C@@H](O)[C@H]3O)c[nH]c12 | Measles morbillivirus | viral replication | Vero 76, Chicago | 0.1 µM |  | inhibition | 0%
CC(C)C[C@H](NC(=O)[C@H](CCCNC(=N)N)NC(=O)[C@H](Cc1c[nH]c2ccccc12)NC(=O)[C@H](CCCNC(=N)N)NC(=O)[C@H](Cc1c[nH]c2ccccc12)NC(=O)[C@H](Cc1c[nH]c2ccccc12)NC(=O)[C@H](Cc1c[nH]c2ccccc12)NC(=O)[C@H](CCCNC(=N)N)NC(=O)[C@H](Cc1c[nH]c2ccccc12)NC(=O)[C@@H](N)CCCNC(=N)N)C(N)=O | Candida albicans | broth microdilution | CGMCC 2.209, RPMI 1640-MOPS | 48 h, 30 °C, together with: MgCl2 1 mM |  | MIC | 16 µM (≈ 27 µg/mL)
Cc1c2c(nn1C)CSCc1cc(n(C)n1)CSc1cc(c3ccccc3c1)OCCCc1c(C(=O)O)n(C)c3c-2c(Cl)ccc13 | Staphylococcus aureus | label-free proteomics, item: pyrB | SA113 | concentration not given | baseline: untreated | protein level fold change | 0.0396
Cc1ccc(-c2cnc([C@@]3(O)CC[C@H](C(=O)O)C(C)(C)C3)s2)cc1Nc1cccc(C(F)(F)F)n1 | murine hepatitis virus | viral replication, nanoluciferase reporter | DBT | 1 µM, 10 h | baseline: DMSO vehicle | inhibition | 25%
COC(=O)C1=C(C)NC(C)=C(C(=O)OC(C)(C)CN(C)CCC(c2ccccc2)c2ccccc2)C1c1cccc([N+](=O)[O-])c1 (stereo not shown) | Aspergillus fumigatus | Alamar blue |  | 125 µg/mL, 48 h, together with: caspofungin 0.2 µg/mL |  | metabolic activity | 20.2% and 23.1%
C=C(CC[C@@H](C)[C@H]1CC[C@H]2[C@@H]3CCC4=CC(=O)CC[C@]4(C)[C@H]3CC[C@]12C)C(C)C | Leishmania mexicana | parasite growth, Giemsa stain count | C57BL/6 mouse bone marrow-derived macrophages, amastigotes | 48 h |  | IC50 | 3.5 µM
CN(C)C(=O)Cn1cc(-c2ccc(-c3nnc4ccccn34)cc2)cn1 | murine hepatitis virus | viral replication, nanoluciferase reporter | DBT | 1 µM | baseline: DMSO vehicle | inhibition | 44%
O=[N+]([O-])c1cc2c(ccc3c4cc([N+](=O)[O-])oc4ccc23)o1 | Enterobacter cloacae | REMA |  |  |  | MIC90 | > 32 µg/mL
Cn1c(=O)ccc2ccc(F)c(CCNC[C@H]3CN(c4cnc5c(n4)NC(=O)CO5)C(=O)O3)c21 | Morganella morganii |  |  |  |  | MIC50 | 0.12 µg/mL (≈ 0.256 µM)
CCCCCCCCCCCc1c([N+](=O)[O-])oc2ccc3ccccc3c12 | Mycobacterium avium subsp. hominissuis | REMA | ATCC 25291 |  |  | MIC90 | > 32 µg/mL
CNCC(=O)N[C@@H](CO)C(=O)N[C@H]1[C@H](O)[C@@H](O)[C@H](n2ccc(N)nc2=O)O[C@@H]1C(N)=O | Tobacco mosaic virus | inactivation activity | plant in vivo |  |  | EC50 | 77.4 ± 1.3 µg/mL (≈ 175 µM)
O=C(O)c1ccc2c3c1cccc3c(=O)n1c3ccccc3nc21 | murine hepatitis virus | viral replication, nanoluciferase reporter | DBT | 1 µM, 10 h | baseline: DMSO vehicle | inhibition | 6%
CC[C@H](C)[C@H](NC(=O)[C@H](CCCNC(=N)N)NC(=O)[C@H](Cc1c[nH]c2ccccc12)NC(=O)[C@H](CCCNC(=N)N)NC(=O)[C@H](Cc1c[nH]c2ccccc12)NC(=O)[C@H](Cc1c[nH]c2ccccc12)NC(=O)[C@H](Cc1c[nH]c2ccccc12)NC(=O)[C@H](CCCNC(=N)N)NC(=O)[C@H](Cc1c[nH]c2ccccc12)NC(=O)[C@@H](N)CCCNC(=N)N)C(N)=O | Candida parapsilosis | broth microdilution | CGMCC 2.399, RPMI 1640-MOPS | 48 h, 30 °C |  | MIC | 16 µM (≈ 27 µg/mL)
C[C@@H]1CN(c2cc(-c3n[nH]c4ccc(OC5(C)CC5)cc34)ncn2)C[C@H](C)O1 | murine hepatitis virus | viral replication, nanoluciferase reporter | DBT | 1 µM | baseline: DMSO vehicle | inhibition | 37%
CCCC(CCC)C(=O)Nc1ccccc1O | Artemia franciscana | LC-MS/MS metabolomics, item: 1-aminocyclopropanecarboxylic acid | larvae | concentration not given, 48 h, LC10 concentration | baseline: vehicle | log2 fold change | 0.816
C[C@H](NC(=O)[C@H](CCCNC(=N)N)NC(=O)[C@H](Cc1c[nH]c2ccccc12)NC(=O)[C@H](CCCNC(=N)N)NC(=O)[C@H](Cc1c[nH]c2ccccc12)NC(=O)[C@H](Cc1c[nH]c2ccccc12)NC(=O)[C@H](Cc1c[nH]c2ccccc12)NC(=O)[C@H](CCCNC(=N)N)NC(=O)[C@H](Cc1c[nH]c2ccccc12)NC(=O)[C@@H](N)CCCNC(=N)N)C(N)=O | Candida albicans | broth microdilution | CGMCC 2.209, RPMI 1640-MOPS | 48 h, 30 °C, together with: ZnCl2 8 µM |  | MIC | 8 µM (≈ 13.2 µg/mL)
